Measured values pooled from the literature.
Protocols differ between the studies behind these lines. ± gives the spread as reported.
DRD2: D(2) dopamine receptor (DRD2, Homo sapiens, UniProt P14416)
Chain of UniProt P14416 (whole entry, looked up): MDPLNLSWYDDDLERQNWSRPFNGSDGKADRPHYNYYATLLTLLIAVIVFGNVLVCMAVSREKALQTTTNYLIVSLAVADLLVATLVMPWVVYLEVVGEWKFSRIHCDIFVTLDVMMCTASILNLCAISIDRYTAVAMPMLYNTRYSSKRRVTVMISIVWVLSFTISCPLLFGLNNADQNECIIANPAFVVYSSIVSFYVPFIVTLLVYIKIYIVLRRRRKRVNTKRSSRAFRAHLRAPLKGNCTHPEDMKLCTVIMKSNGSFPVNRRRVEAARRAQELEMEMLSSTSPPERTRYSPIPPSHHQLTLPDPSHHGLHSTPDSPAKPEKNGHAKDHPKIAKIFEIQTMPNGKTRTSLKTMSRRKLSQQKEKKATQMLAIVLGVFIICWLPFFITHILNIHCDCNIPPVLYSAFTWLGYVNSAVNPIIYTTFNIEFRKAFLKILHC
DRD2 long isoform: D(2) dopamine receptor, long isoform (DRD2, Homo sapiens, UniProt P14416)

With CCS(=O)(=O)c1nc(S(=O)(=O)c2ccccc2Cl)c(N2CCN(C)C(=O)[C@H]2C)s1 the inhibition was 1.82% (DRD2; 10 µM).
O=C(NO)c1ccc(CN2CCCCc3ccccc32)c(F)c1 has an inhibition of -11.1% (DRD2; radioligand binding, radioligand displacement; 10 µM).
For O=C(c1ccc(Cl)cc1)N(Cc1ccccc1)C1CCCCC1, the inhibition was 14.3% (DRD2; 10 µM).
The inhibition of COc1cc2c(cc1OC)C(=O)N(CCCCN1CCN(c3ccccc3OC)CC1)C2 is reported as 96.2% (DRD2; radioligand binding; 10 µM, with: [3H]N-methylspiperone).
CCN1/C(=C/C(C)=O)Sc2ccc(F)cc21 gave an inhibition of 6.33% (D(2) dopamine receptor, short isoform (DRD2, Homo sapiens, UniProt P14416); radioligand binding; 10 µM).
Cc1cc2c(N3CCN(CCCCOc4ccc5c(c4)NC(=O)CC5)CC3)cccc2n1C gave a log(τ/KA) of 8.39 ± 0.15 (DRD2 long isoform; β-arrestin2 recruitment, agonist, Tango; human cells).
O=C(Nc1ccc(S(=O)(=O)N2CCC(Cl)CC2)cc1)c1ccc([N+](=O)[O-])o1 gave an inhibition of 21% (DRD2; radioligand binding; 10 µM).
With O=C(c1ccc(F)cc1)N(Cc1ccccc1)C1CCCCC1 the inhibition was -1% (DRD2; 10 µM).
CN(C(=O)n1cnc(-c2ccc[n+]([O-])c2)c1)C1CCCCC1 has an inhibition of 1.85% (DRD2; 10 µM).
For Cc1cc2c(N3CCN(CCCCOc4ccc5c(c4)NC(=O)CC5)CC3)cccc2[nH]1, the log(τ/KA) was 9.11 ± 0.01 (DRD2 long isoform; β-arrestin2 recruitment, agonist, Tango; human cells).
NC/C(=C\F)COc1cccc(Cn2c(=S)[nH]c(=O)c3[nH]cnc32)c1 has an inhibition of less than 50% (DRD2; radioligand binding; 10 µM).
CCCC(CCC)c1nc2c(Nc3ccc(C#CCCCCCCCCN)cc3)nc3ccccc3c2[nH]1: off-target affinity “inactive” (DRD2; PDSP screening).
